{"data": "Published values pooled from the literature", "note": "A part holds a random share of what one study measured."}
{"data": "Set 1", "target": "5-hydroxytryptamine receptor 7 (HTR7, Homo sapiens, UniProt P34969)", "effect on": "ligand displacement", "tested at": "10 µM", "UniProt P34969, sequence (whole entry, looked up)": "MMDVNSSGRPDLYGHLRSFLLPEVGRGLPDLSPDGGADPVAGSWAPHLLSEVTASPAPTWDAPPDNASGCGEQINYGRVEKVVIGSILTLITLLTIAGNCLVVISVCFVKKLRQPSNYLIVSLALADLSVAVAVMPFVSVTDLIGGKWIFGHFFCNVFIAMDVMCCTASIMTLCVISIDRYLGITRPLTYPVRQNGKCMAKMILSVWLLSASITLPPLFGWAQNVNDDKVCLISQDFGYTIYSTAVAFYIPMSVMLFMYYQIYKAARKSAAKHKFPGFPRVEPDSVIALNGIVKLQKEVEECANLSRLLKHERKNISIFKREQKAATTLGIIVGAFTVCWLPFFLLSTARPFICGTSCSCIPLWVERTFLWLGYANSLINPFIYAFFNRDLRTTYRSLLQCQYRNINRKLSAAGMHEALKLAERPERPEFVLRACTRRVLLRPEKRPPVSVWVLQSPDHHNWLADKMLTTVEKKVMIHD"}
{"Compound": "CC1CCN(c2ccnc(NCc3cn(C)cn3)n2)CC1", "inhibition [%]": 34.6}
{"Compound": "Nc1nc(NCc2ccccc2)nc(-c2cccc(CO)c2)n1", "inhibition [%]": 15.9}
{"Compound": "CS(=O)(=O)N1CCCC(NC(=O)[C@H](CCC2CCCCC2)NC(=O)c2ccc(CNC(=O)c3cnc4ccccn34)cc2)C1 (stereo partly shown)", "inhibition [%]": 11.3}
{"Compound": "CNC(=N)NCCC[C@H](NC(=O)[C@H](CC(C)C)NC(=O)NNC(=O)[C@H](Cc1ccccc1)NC(=O)[C@H](CO)NC(=O)[C@H](CC(N)=O)NC(=O)[C@@H](Cc1ccncc1)NC(=O)[C@H](N)Cc1ccc(O)cc1)C(=O)N[C@@H](Cc1ccccc1)C(N)=O", "inhibition [%]": -2.33}
{"Compound": "COCCOc1nc(-c2ccc(Cl)nc2)nc2c1CN(C(=O)c1ncn3ccccc13)CC2", "inhibition [%]": 42.3}
{"Compound": "c1ccc(N2CCN(Cc3nc4ccccc4[nH]3)CC2)nc1", "inhibition [%]": 28.5}
{"Compound": "CCc1ccccc1C(=O)Nc1n[nH]c2c(C)c(F)c(C3C(C#N)=C(C)N(C)C(C)=C3C#N)cc12", "inhibition [%]": 13.9}
{"data": "Set 2", "cell line": "mouse MPNST tumor cells", "technique": "high-content nuclear imaging", "item": "cell number", "tested at": "10 µM", "time": "12 h", "notes": "mean of 2 replicates", "baseline": "plate mean", "direction": "higher = more cells"}
{"Structure (SMILES)": "CCS(=O)(=O)N(C)[C@H]1c2cc(C#N)ccc2OC(C)(C)[C@@H]1O (racemic)", "nuclei count [z-score]": -0.315}
{"Structure (SMILES)": "CN1C(C(=O)Nc2ccccn2)=C(O)c2ccccc2S1(=O)=O", "nuclei count [z-score]": 0.106}
{"Structure (SMILES)": "COc1cc(NC(=O)c2ccccn2)ccc1Cl", "nuclei count [z-score]": 0.0454}
{"Structure (SMILES)": "Cc1ccc(S(=O)(=O)NC(=O)NN2CCCCCC2)cc1", "nuclei count [z-score]": 0.28}
{"Structure (SMILES)": "CCN(CC)CCOC(=O)C(c1ccccc1)C1CCCCC1 (stereo not shown)", "nuclei count [z-score]": 0.811}
{"data": "Set 3", "target": "Casein kinase I isoform alpha (CSNK1A1, Homo sapiens, UniProt P48729)", "effect on": "enzyme activity", "action": "inhibitor", "tested at": "0.5 µM", "baseline": "control", "UniProt P48729, sequence (whole entry, looked up)": "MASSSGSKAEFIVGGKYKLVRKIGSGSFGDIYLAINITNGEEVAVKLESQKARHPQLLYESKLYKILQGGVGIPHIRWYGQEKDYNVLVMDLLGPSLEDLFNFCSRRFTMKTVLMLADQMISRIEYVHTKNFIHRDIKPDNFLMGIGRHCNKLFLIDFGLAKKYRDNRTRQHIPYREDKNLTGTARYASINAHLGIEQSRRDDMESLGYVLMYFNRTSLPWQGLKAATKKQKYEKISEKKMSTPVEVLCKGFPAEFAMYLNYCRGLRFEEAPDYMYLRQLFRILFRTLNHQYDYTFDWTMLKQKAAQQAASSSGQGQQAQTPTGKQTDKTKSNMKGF"}
{"SMILES": "COc1ccc(OC)c2c(=S)c3ccccc3[nH]c12", "remaining activity [%]": 102}
{"SMILES": "Nc1[nH]nc2nc3ccccc3nc12", "remaining activity [%]": 101}
{"SMILES": "CCOC(=O)c1c(C)[nH]c(/C=C2\\C(=O)Nc3ccccc32)c1C", "remaining activity [%]": 98.6}
{"SMILES": "Oc1ccc(-c2nc(-c3ccncc3)c(-c3ccc(F)cc3)[nH]2)cc1", "remaining activity [%]": 62.3}
{"SMILES": "OCC(O)CCON=C1C(c2c(O)[nH]c3ccccc23)=Nc2ccccc21 (stereo not shown)", "remaining activity [%]": 84.8}
{"SMILES": "N#CC(C#N)=C(N)/C(C#N)=C/c1ccc(O)cc1", "remaining activity [%]": 85}
{"SMILES": "Cc1cccc(-c2[nH]c(C(C)(C)C)nc2-c2ccc3c(c2)OCO3)n1", "remaining activity [%]": 96.5}
{"SMILES": "O=C(Nc1cccc(Nc2cc(Nc3cccc(C(F)(F)F)c3)ncn2)c1)C1CC1", "remaining activity [%]": 102}
{"SMILES": "COc1cc2nccc(Oc3ccc(NC(=S)NC(=O)c4ccccc4C)cc3)c2cc1OC", "remaining activity [%]": 96.3}
{"SMILES": "O=C1NC(=O)C(c2cn(CCCn3ccnc3)c3ccccc23)=C1Nc1ccccc1", "remaining activity [%]": 102}
{"SMILES": "CC(C)[C@H](CO)Nc1nc(Nc2cc(N)cc(Cl)c2)c2ncn(C(C)C)c2n1", "remaining activity [%]": 75.5}
{"SMILES": "COc1cc2ncnc(Nc3ccc(Oc4ccccc4)cc3)c2cc1OC", "remaining activity [%]": 98.2}
{"SMILES": "Nc1ccc2ncnc(NCCc3ccc(Oc4ccccc4)cc3)c2c1", "remaining activity [%]": 102}
{"SMILES": "O=c1c2ccccc2[nH]c(=S)n1CCN1CCC(=C(c2ccc(F)cc2)c2ccc(F)cc2)CC1", "remaining activity [%]": 106}
{"SMILES": "O=C1NC(=O)C(c2cn(CCCO)c3ncccc23)=C1c1cnccn1", "remaining activity [%]": 67}
{"data": "Set 4", "host": "mouse", "sample": "microsomes or S9", "tested at": "2 µM", "time": "0.5 h"}
{"SMILES": "CCOC(=O)c1cnn(-c2ccc(C(=O)O)cc2)c1N", "remaining compound [%]": 1.78}
{"SMILES": "CCc1cc2c3c([nH]c2cc1S(=O)(=O)Nc1ccc2c(c1)OCCO2)CC(C)(C)CC3=O", "remaining compound [%]": 0.883}
{"SMILES": "CCC(C)(NCc1nnc(-c2ccc(F)cc2)o1)c1nc(C)cs1 (stereo not shown)", "remaining compound [%]": 0.0353}
{"SMILES": "CC(C)(C)OC(=O)NCCC(=O)Nc1nc2cc(F)ccc2s1", "remaining compound [%]": 46.1}
{"SMILES": "O=C(NCc1ccc(F)cc1)c1nc2c(cnn2-c2ccc(F)cc2)c(=O)[nH]1", "remaining compound [%]": 25.7}
{"SMILES": "Cc1onc2c1COC2c1c(Cl)cccc1Cl (stereo not shown)", "remaining compound [%]": 76.2}
{"SMILES": "CCN(CCCNC(=O)CN1C(=O)c2cccnc2Oc2ccc(C)cc21)c1cccc(C)c1", "remaining compound [%]": 0.132}
